Assay results pooled from the literature.
± marks the error that the study gave.
CDK2: Cyclin-dependent kinase 2 (CDK2, Homo sapiens, UniProt P24941)
CDK2 with cyclin A2: Cyclin-dependent kinase 2, with cyclin A2 (CDK2, Homo sapiens, UniProt P24941)

CCN(CC)c1ccc(C2=NNC(=O)CC2C)cc1[N+](=O)[O-] (centres unmarked)
remaining activity (Cyclin-dependent kinase 2, with cyclin E (CDK2, Homo sapiens, UniProt P24941); enzyme activity, inhibitor; 10 µM; relative to: vehicle): 121%

Cc1n[nH]c2ccc3nc(-c4ccc(C(=O)NCCN(C)C)cc4F)c4c(c3c12)CCCC4
remaining binding (CDK2; KINOMEscan; concentration not given): 100%

C[C@@H](c1ccc(-n2cnc3c(N)ncnc32)cc1)N1CCc2nn(C)c(Cc3ccccc3)c2C1=O
remaining binding (CDK2; KINOMEscan; 0.1 µM; relative to: DMSO control): 78%

C=CC(=O)N1CCC[C@@H](n2nc(-c3ccc(Oc4ccccc4)cc3)c3c(N)ncnc32)C1
remaining activity (Cyclin-dependent kinase 2, with cyclin A1 (CDK2, Homo sapiens, UniProt P24941); kinase activity, inhibitor, HotSpot radiometric; 100 nM, added: ATP 10 µM): 86.4 ± 1.1%

CC(=O)Nc1c(N)nc(SCC(=O)N/N=C/c2ccc([N+](=O)[O-])cc2)[nH]c1=O
remaining activity (CDK2 with cyclin A2; kinase activity; 1 nM): 96%

CC(C)=CCc1c(O)c(CC=C(C)C)c2oc3c(O)ccc(O)c3c(=O)c2c1O
inhibition (Cyclin-dependent kinase 2, with cyclin E1 (CDK2, Homo sapiens, UniProt P24941); kinase activity, inhibitor; concentration not given): inactive

Cc1ncsc1-c1ccc([C@H](C)NC(=O)[C@@H]2C[C@@H](O)CN2C(=O)[C@@H](NC(=O)CCCCCCCCC(=O)N(CCO)CCCOc2ccc3c(Nc4cc(CC(=O)Nc5cccc(F)c5)[nH]n4)ncnc3c2)C(C)(C)C)cc1
protein level (CDK2; degradation, Western blot; PC-3 and HPAF-II; 1 µM, 24 h): no effect

CC(=O)Nc1c(N)nc(SCC(=O)NN)[nH]c1=O
remaining activity (CDK2 with cyclin A2; kinase activity; 1000 nM): 27%

CCCOc1ccc(OC)c(F)c1C(=O)c1ccc(C(=O)N[C@@H]2CNC[C@H]2NC(=O)c2ccc3[nH]ncc3c2)cc1
remaining activity (Cyclin-dependent kinase 2, with cyclin A (CDK2, Homo sapiens, UniProt P24941); enzyme activity; 10 µM): 90%

CNC(=O)c1cc(Oc2ccc(NC(=O)Nc3ccc(Cl)c(C(F)(F)F)c3)cc2)ccn1
remaining activity (CDK2 with cyclin A2; kinase activity, inhibitor, ADP-Glo kinase; 20 nM): 56.9%

CC[C@@H]1[C@H](F)C(=O)N[C@@H]1COc1nccc2cc(C(N)=O)c(OC)cc12
inhibition (CDK2; ATP-site probe binding, ActivX profiling; THP-1 cell lysate; 0.01 mM, Lys1 site): 1.9%

For quick reference, copied from above:
CC[C@@H]1[C@H](F)C(=O)N[C@@H]1COc1nccc2cc(C(N)=O)c(OC)cc12
inhibition (CDK2; ATP-site probe binding, ActivX profiling; THP-1 cell lysate; 0.01 mM, Lys1 site): 1.9%
